Published values from different studies.
Numbered parts are unrelated; each lists some results of a single study. Several values in a cell are separate wells, animals, samples, runs or records. ≈ marks a conversion by molar mass, not a printed value.

Set 1 — cell line: U-87 MG; concentration: concentration not given; reference: DMSO
Structure (SMILES): CCN1/C(=C/C=C2\CCCC(/C=C/C3=[N+](CC)c4ccccc4C3(C)C)=C2NCCCCCCCCN2CCC(Nc3nc4ccccc4n3Cc3ccc(F)cc3)CC2)C(C)(C)c2ccccc21
| assay | log2 fold change |
| --- | --- |
| item: SSH3 mRNA | -0.835 |
| item: FAM171A1 mRNA | -1.18 |
| item: SNTB2 mRNA | -0.918 |
| item: SCN2A mRNA | -2.63 |
| item: HSPE1-MOB4 mRNA | 1.74 |
| item: CEBPB mRNA | 0.805 |
| item: SDC1 mRNA | -1.92 |
| item: PCYOX1L mRNA | -1.34 |
| item: PRDM8 mRNA | -0.937 |
| item: LIMS4 mRNA | 1.38 |
| item: LIMS1 mRNA | 1.24 |
| item: PNPLA3 mRNA | -1.08 |
| item: ORAI2 mRNA | -1.08 |
| item: ZNF473 mRNA | 0.965 |
| item: PCDHB16 mRNA | -1.22 |
| item: SERPINB8 mRNA | 1.92 |

Set 2 — time: 6 days
SMILES: Cc1ncsc1-c1ccc(C(CO)NC(=O)C2CC(O)CN2C(=O)C(NC(=O)c2ccc(COc3c(-c4c(C)c(F)cc5[nH]ncc45)c(C4CC4)cc4c(N5CC6CC5CN6)nc(OC5CCOCC5)nc34)cc2)C(C)C)cc1 (centres unmarked)
| cell line | assay | conditions | viability |
| --- | --- | --- | --- |
| AsPC-1 | CellTiter-Glo | 3 nM | 87.3% and 86.5% and 85.8% |
| ASPC1 | cell growth or viability, ATP luminescence | 300 pM | 82.2% and 91.4% and 87.7% and 87.6% and 88.7% |
| ASPC1 | cell growth or viability, ATP luminescence | 0.1 µM | 77.7% and 43.2% and 44.6% and 61.4% and 42% and 80.1% |
| ASPC1 | cell growth or viability, ATP luminescence | 1 nM | 81% and 72.3% and 78.2% and 97% and 78.9% and 84.8% |
| ASPC1 | cell growth or viability, ATP luminescence | 10 nM | 90.2% and 86.9% and 94.6% and 89.6% and 81.4% |

Set 3 — observed: enzyme activity; mode: inhibitor; method: Ub-TR-FRET; matrix: HECT domain; concentration: 0.4115 µM; reading: higher = more chain formation
Target: E3 ubiquitin-protein ligase NEDD4, HECT domain (Homo sapiens, UniProt P46934)
Residues (P46934 938-1319, limits assumed): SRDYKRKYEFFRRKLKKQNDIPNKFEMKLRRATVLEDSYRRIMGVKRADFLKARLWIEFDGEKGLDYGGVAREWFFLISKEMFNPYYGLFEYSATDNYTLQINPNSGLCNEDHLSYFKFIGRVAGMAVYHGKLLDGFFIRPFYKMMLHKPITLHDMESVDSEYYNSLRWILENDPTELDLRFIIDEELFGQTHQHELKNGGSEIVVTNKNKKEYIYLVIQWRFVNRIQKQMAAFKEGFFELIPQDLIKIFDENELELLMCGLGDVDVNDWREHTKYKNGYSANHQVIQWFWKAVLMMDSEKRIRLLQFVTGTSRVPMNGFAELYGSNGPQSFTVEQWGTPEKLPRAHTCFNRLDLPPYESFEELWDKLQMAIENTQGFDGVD
| Structure (SMILES) | ubiquitin chain formation AUC |
| --- | --- |
| COC(=O)CCCNCCCN1c2ccccc2CCc2ccc(Cl)cc21.COC(=O)CCCNCCCN1c2ccccc2CCc2ccc(Cl)cc21.O=C(O)/C=C/C(=O)O | 131000 a.u. and 130000 a.u. |
| CONC(=O)/C=C/CNCCCCN1c2ccccc2CCc2ccc(Cl)cc21.O=C(O)/C=C\C(=O)O | 32400 a.u. and 49500 a.u. and 50500 a.u. and 33400 a.u. and 52100 a.u. |
| CC(C)ONC(=O)/C=C/CNCCCCN1c2ccccc2CCc2ccc(Cl)cc21.O=C(O)/C=C\C(=O)O | 32600 a.u. and 31900 a.u. and 27400 a.u. and 28600 a.u. and 27300 a.u. |
| CCOC(=O)/C=C/CNCCCCN1c2cc(Cl)ccc2C(=O)N(C)c2ccccc21.O=C(O)/C=C\C(=O)O | 81600 a.u. and 84000 a.u. and 80700 a.u. |
| CCOC(=O)/C=C/CNCCCCN1c2cc(Cl)ccc2COc2ccccc21.O=C(O)/C=C\C(=O)O | 71100 a.u. and 72700 a.u. and 71700 a.u. |
| CN(C)C/C=C/C(=O)NCCCN1c2ccccc2CCc2ccc(Cl)cc21 | 131000 a.u. and 128000 a.u. |
| CCOC(=O)/C=C/CN(CC)CCCCN1c2ccccc2CCc2ccc(Cl)cc21.O=C(O)/C=C\C(=O)O | 87000 a.u. and 77400 a.u. and 88800 a.u. and 77900 a.u. and 76700 a.u. and 85600 a.u. |
| CCONC(=O)/C=C/CNCCCCN1c2ccccc2CCc2ccc(Cl)cc21.O=C(O)/C=C\C(=O)O | 27500 a.u. and 18500 a.u. and 17400 a.u. and 25900 a.u. and 18000 a.u. and 26200 a.u. |
| Cl.NC(=O)/C=C/CNCCCN1c2ccccc2CCc2ccc(Cl)cc21 | 136000 a.u. and 137000 a.u. |

Single results of other studies
PKMYT1: Membrane-associated tyrosine- and threonine-specific cdc2-inhibitory kinase (PKMYT1, Homo sapiens, UniProt Q99640)
Chain of UniProt Q99640 (whole entry, looked up): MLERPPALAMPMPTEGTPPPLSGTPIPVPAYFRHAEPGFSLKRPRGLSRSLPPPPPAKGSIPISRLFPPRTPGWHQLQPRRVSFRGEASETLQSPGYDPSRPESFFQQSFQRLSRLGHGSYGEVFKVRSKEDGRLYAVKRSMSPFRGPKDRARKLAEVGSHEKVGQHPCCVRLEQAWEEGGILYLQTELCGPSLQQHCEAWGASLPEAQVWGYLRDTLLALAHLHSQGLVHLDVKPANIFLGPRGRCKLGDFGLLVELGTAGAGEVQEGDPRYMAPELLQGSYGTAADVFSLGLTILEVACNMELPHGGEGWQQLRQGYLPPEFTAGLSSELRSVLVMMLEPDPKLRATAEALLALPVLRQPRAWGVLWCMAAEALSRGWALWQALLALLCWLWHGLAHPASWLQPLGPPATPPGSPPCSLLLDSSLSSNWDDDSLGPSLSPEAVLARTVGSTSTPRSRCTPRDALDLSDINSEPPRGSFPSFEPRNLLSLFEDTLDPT
| SMILES | tested on | assay | test system | conditions | scale | endpoint | result |
| --- | --- | --- | --- | --- | --- | --- | --- |
| Cc1ccc(O)c(C)c1-c1cnc2[nH]c(-c3cnc(N4CCC(CN5CCN(c6ccc(NC7CCC(=O)NC7=O)c(F)c6)CC5)CC4)nc3)cc2c1C#N (racemic) | HCC1569 | in-cell western, item: CDK1 phospho-Thr14 |  |  |  | IC80 | 194 nM |
| CC[C@@]1(c2cccc(C(F)(F)F)c2)C2=C(Nc3n[nH]cc31)[C@H](F)C(C)(C)CC2=O (single isomer, unassigned) |  |  | aqueous buffer | pH 6.8 |  | solubility | 22.6 µg/mL (≈ 55.5 µM) |
| Cc1ccc(O)c(C)c1-c1cnc2[nH]c(-c3cnc(N4CCC5(CC4)CC(N4CCN(c6ccc(NC7CCC(=O)NC7=O)cc6F)CC4)CO5)nc3)cc2c1C#N (centres unmarked) |  |  | female CD-1 mouse, plasma | oral, 10 mg/kg |  | bioavailability | 53.4% |
| Cc1ccc(O)c(C)c1-c1cnc2[nH]c(-c3cnc(N4CCC(CCN5CCN(c6cc7c(cc6F)c(N6CCC(=O)NC6=O)nn7C)CC5)CC4)nc3)cc2c1C#N | PKMYT1 | degrader, automated immunoblot (Jess) |  | 10 nM | reference: GAPDH | protein level | 20.5% |
| Cc1ccc(O)c(C)c1-c1cnc2[nH]c(-c3cnc(N4CCC5(CC4)CC(N4CCN(c6cc7c(cc6F)c(N6CCC(=O)NC6=O)nn7C)CC4)CO5)nc3)cc2c1C#N (racemic) | PKMYT1 | degrader, automated immunoblot (Jess) |  | 0.1 nM | reference: GAPDH | protein level | 106% |

For quick reference, copied from above (set 1):
| assay | log2 fold change |
| --- | --- |
| item: SNTB2 mRNA | -0.918 |
| item: SCN2A mRNA | -2.63 |
| item: HSPE1-MOB4 mRNA | 1.74 |
| item: CEBPB mRNA | 0.805 |
| item: SDC1 mRNA | -1.92 |
